# Results collected from several papers.
# Parts stem from different laboratories: compare values within a part only. “And” joins repeats or separate records; there may be more than shown.
# UniProt P08069, sequence (whole entry, looked up): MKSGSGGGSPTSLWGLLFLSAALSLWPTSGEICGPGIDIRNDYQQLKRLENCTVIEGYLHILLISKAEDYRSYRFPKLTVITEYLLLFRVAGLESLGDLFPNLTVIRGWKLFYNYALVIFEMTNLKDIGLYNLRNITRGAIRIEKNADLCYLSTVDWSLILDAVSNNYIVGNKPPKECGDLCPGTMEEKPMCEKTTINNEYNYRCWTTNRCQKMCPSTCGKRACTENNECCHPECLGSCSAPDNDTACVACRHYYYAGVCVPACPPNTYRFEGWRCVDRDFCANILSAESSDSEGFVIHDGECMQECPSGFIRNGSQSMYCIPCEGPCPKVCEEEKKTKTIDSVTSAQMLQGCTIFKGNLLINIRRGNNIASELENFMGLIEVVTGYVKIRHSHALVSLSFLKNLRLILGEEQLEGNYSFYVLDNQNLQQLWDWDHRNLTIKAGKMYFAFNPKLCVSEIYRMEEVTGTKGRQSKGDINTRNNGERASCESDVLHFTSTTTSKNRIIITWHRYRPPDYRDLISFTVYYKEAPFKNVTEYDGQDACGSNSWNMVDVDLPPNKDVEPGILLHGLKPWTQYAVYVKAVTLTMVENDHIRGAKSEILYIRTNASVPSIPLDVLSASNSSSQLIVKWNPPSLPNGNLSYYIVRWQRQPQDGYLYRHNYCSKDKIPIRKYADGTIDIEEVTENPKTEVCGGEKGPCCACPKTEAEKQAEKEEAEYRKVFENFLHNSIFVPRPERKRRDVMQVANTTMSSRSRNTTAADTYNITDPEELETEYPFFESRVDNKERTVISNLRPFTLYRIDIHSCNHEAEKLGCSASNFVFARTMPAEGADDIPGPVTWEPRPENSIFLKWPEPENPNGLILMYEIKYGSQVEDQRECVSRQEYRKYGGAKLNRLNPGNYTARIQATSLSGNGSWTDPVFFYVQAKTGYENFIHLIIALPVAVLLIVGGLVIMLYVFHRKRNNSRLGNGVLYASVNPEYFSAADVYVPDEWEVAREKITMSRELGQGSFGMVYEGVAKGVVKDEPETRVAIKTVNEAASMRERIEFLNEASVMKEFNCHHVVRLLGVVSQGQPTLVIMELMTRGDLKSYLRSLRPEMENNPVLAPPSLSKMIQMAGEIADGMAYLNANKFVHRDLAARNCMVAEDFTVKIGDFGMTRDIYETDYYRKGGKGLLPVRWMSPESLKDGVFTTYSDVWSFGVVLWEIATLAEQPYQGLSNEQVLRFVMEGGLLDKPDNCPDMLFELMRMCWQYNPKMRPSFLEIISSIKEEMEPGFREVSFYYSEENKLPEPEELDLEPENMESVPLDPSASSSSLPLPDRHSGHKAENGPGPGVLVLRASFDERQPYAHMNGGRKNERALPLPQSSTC
# UniProt Q99640, sequence (whole entry, looked up): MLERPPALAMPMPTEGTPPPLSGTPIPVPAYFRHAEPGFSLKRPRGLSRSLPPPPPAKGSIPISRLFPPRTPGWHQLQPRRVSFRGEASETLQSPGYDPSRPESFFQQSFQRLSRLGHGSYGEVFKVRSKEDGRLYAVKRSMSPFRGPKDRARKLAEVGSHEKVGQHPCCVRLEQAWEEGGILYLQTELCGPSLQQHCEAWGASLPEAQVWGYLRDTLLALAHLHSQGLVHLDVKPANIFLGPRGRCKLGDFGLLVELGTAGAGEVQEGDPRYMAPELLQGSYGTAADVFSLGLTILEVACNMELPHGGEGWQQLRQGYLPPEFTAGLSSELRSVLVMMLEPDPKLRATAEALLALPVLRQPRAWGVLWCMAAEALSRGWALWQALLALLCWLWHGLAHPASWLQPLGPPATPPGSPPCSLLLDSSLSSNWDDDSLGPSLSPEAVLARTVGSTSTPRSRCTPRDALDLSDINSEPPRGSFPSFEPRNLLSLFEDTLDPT
# UniProt P50750, sequence (whole entry, looked up): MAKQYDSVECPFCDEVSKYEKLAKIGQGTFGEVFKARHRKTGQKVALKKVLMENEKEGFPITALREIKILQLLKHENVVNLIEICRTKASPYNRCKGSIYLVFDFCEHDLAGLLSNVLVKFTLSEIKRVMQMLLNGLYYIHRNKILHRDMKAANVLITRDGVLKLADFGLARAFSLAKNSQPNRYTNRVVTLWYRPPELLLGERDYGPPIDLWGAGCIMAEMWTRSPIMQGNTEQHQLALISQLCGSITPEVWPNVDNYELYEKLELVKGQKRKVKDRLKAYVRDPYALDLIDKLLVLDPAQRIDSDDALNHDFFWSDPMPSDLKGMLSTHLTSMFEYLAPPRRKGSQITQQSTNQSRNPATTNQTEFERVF
# UniProt P42338, sequence (whole entry, looked up): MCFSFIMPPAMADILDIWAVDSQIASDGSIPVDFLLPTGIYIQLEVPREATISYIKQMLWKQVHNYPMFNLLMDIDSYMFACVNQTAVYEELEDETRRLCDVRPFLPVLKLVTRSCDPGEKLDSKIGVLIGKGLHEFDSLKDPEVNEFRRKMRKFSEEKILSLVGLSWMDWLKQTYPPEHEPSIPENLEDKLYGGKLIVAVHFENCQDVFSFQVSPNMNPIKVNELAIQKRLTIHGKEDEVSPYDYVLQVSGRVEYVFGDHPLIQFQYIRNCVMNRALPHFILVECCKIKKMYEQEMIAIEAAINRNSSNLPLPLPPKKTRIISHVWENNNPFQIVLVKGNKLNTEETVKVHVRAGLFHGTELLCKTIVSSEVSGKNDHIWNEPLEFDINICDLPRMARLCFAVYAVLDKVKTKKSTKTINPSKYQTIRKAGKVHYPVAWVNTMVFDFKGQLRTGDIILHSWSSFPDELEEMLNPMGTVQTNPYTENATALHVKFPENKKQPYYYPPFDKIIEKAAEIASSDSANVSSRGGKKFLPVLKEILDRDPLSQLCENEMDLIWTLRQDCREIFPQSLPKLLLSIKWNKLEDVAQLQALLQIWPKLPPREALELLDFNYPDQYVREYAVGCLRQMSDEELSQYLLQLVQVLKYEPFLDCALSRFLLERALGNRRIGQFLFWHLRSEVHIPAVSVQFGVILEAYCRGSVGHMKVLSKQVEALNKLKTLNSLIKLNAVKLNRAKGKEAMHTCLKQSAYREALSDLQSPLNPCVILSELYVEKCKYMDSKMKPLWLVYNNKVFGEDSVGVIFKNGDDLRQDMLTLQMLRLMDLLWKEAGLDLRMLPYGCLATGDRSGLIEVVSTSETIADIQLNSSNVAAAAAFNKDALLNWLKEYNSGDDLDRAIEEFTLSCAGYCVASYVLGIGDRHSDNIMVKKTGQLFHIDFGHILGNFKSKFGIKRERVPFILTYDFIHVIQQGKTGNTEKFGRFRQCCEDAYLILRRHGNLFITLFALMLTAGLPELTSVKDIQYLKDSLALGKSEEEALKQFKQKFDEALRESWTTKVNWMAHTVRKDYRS
# UniProt O14757, sequence (whole entry, looked up): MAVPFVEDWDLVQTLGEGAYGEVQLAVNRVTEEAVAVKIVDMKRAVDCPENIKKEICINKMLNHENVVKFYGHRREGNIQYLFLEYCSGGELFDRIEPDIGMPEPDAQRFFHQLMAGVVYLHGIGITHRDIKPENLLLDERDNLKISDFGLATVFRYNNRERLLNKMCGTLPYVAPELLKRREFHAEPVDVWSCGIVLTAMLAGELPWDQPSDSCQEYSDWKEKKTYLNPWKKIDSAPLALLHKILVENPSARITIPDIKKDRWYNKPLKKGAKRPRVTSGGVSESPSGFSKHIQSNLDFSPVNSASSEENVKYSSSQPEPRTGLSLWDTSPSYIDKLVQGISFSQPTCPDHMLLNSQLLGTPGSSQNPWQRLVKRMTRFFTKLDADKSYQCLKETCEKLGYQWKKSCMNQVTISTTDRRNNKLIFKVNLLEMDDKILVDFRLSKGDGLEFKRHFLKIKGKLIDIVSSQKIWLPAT
# UniProt Q8NFD2, sequence (whole entry, looked up): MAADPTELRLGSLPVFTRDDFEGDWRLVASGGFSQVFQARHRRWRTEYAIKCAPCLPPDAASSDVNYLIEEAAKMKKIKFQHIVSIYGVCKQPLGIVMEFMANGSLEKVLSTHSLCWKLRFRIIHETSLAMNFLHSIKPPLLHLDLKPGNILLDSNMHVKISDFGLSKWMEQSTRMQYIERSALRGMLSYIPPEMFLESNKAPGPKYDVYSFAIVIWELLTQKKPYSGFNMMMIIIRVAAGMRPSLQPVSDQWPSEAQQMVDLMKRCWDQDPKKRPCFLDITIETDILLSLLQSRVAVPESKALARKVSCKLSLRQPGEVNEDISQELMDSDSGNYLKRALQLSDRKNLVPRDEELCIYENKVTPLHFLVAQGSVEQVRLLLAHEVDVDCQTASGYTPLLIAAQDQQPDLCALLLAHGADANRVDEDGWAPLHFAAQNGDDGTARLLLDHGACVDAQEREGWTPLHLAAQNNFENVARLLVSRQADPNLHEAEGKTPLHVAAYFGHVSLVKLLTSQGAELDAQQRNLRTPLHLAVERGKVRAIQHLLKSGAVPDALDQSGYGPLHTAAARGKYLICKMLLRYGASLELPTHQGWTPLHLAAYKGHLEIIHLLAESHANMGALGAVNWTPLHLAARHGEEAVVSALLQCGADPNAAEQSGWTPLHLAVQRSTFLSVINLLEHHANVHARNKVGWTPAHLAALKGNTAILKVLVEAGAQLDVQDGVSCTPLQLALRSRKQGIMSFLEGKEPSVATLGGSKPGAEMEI

# Set 1
# Structure (SMILES): CN([C@@H]1CCc2c(CC(=O)O)c3ccccc3n2C1)S(=O)(=O)c1ccc(F)cc1
# Observed: cell-free assay
# Technique: competition with immobilised ligand
# Concentration: 1 µM
target,remaining binding [%]
"IGF1R (Homo sapiens, UniProt P08069)",100
"MAPK6 (Homo sapiens, UniProt Q16659)",100
"MAP4K3 (Homo sapiens, UniProt Q8IVH8)",100
"PI4KB (Homo sapiens, UniProt Q9UBF8)",100
"PRKACA (Homo sapiens, UniProt P17612)",100
"PKMYT1 (Homo sapiens, UniProt Q99640)",100
"EPHA2 (Homo sapiens, UniProt P29317)",100
"PIK3CA (Homo sapiens, UniProt P42336, H1047L)",100
"Tyrosine-protein kinase JAK1, JH2 (JAK1, Homo sapiens, UniProt P23458)",83
"CHEK1 (Homo sapiens, UniProt O14757)",100
"CDK9 (Homo sapiens, UniProt P50750)",100
"ANKK1 (Homo sapiens, UniProt Q8NFD2)",100
"STK35 (Homo sapiens, UniProt Q8TDR2)",100
"PIK3CB (Homo sapiens, UniProt P42338)",88
"SRPK3 (Homo sapiens, UniProt Q9UPE1)",100
"PIP5K1A (Homo sapiens, UniProt Q99755)",100
"RET (Homo sapiens, UniProt P07949, V804M)",98
"MAPK4 (Homo sapiens, UniProt P31152)",100
"CDK7 (Homo sapiens, UniProt P50613)",82
"FLT3 (Homo sapiens, UniProt P36888, N841I)",100

# Set 2
# Cell line: mouse MPNST tumor cells
# Technique: high-content nuclear imaging
# Measured: cell number
# Concentration: 10 µM
# Time: 12 h
# Setting: mean of 2 replicates
# Reference: plate mean
# Reading: higher = more cells
SMILES,nuclei count
COCC1=C(C(=O)OC(C)OC(=O)OC(C)C)N2C(=O)[C@@H](NC(=O)/C(=N\OC)c3csc(N)n3)[C@H]2SC1 (stereo partly shown),0.951 z-score
O=[N+]([O-])c1c(Nc2cc(F)cc(Cl)c2)ccc2nonc12,-0.876 z-score
Cc1ccc2c(=O)c3ccccc3n(CCCN)c2c1C,-4.18 z-score
N#Cc1cnc2cnc(NCc3cccnc3)cc2c1Nc1ccc(F)c(Cl)c1,0.273 z-score
Cc1ccc(-c2cc(C(F)(F)F)nn2-c2ccc(S(N)(=O)=O)cc2)cc1,1.49 z-score and 1.94 z-score
O=C(Oc1nsnc1N1CCCCC1)N1CCOCC1,1.64 z-score
CC(C)N(CCCNC(=O)Nc1ccc(C(C)(C)C)cc1)C[C@H]1O[C@@H](n2cc(Br)c3c(N)ncnc32)[C@H](O)[C@@H]1O,-1.18 z-score and -0.791 z-score
Cc1cc([N+](=O)[O-])ccc1NS(=O)(=O)c1cc(Cl)ccc1Cl,2.33 z-score
COc1ccc(-c2cnc(NCc3cccc(OC)c3)n2C)cc1,0.504 z-score
C[C@@H](CN1CCC(n2c(=O)[nH]c3cc(Cl)ccc32)CC1)NC(=O)c1ccc2ccccc2c1,-6.12 z-score
CCOC(=O)CCNc1cc(N2CCc3ccccc3CC2)nc(-c2cccnc2)n1,1.75 z-score
Cc1cc(Nc2nc(N[C@@H](C)c3ncc(F)cn3)ncc2Cl)[nH]n1,-2.17 z-score
CC(C(=O)O)c1cccc(Oc2ccccc2)c1 (stereo not shown),2.06 z-score and 1.23 z-score

# Set 3
# Target: Calcium/calmodulin-dependent protein kinase type II subunit alpha (CAMK2A, Homo sapiens, UniProt Q9UQM7)
# UniProt Q9UQM7, sequence (whole entry, looked up): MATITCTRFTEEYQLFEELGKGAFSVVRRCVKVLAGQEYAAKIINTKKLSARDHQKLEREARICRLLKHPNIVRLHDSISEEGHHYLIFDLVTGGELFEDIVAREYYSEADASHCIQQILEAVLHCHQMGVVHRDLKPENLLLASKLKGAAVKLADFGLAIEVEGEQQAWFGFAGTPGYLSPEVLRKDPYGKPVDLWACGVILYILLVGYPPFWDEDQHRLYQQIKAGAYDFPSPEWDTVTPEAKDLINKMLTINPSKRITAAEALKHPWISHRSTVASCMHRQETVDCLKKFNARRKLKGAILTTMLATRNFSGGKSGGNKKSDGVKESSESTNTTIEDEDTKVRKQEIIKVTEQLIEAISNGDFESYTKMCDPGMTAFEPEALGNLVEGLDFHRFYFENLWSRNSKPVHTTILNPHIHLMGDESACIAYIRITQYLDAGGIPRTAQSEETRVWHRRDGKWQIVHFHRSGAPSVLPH
# Observed: enzyme activity
# Action: inhibitor
# Concentration: 10 µM
SMILES,inhibition
O=C(O)/C=C/c1ccc(O)cc1,-63%
C=C(C)[C@H](C)c1cc(/C=C/C(=O)c2ccc(O)cc2)c(OC)cc1O,-11%
CCCCOc1ccc(OCCCN2CCOCC2)cc1,-4%
C[C@H](N)C(=O)N[C@@H](CCC(N)=O)C(=O)O,10%
Nc1ncnc2c1ncn2CCOCP(=O)(O)O,-8%
CC(=O)CCCCn1c(=O)c2c(ncn2C)n(C)c1=O,2%
O=C(O[C@@H]1Cc2c(O)cc(O)cc2O[C@H]1c1cc(O)c(O)c(O)c1)c1cc(O)c(O)c(O)c1,-71%
CC1=C(C(=O)OCCN(Cc2ccccc2)c2ccccc2)C(c2cccc([N+](=O)[O-])c2)C(P2(=O)OCC(C)(C)CO2)=C(C)N1 (stereo not shown),-4%
CC(C)[C@H](C)CC[C@@H](C)[C@H]1CC[C@H]2[C@@H]3CC=C4C[C@@H](O)CC[C@]4(C)[C@H]3CC[C@]12C,33%
CC(=O)Nc1cccc(-n2c(=O)n(C3CC3)c(=O)c3c(Nc4ccc(I)cc4F)n(C)c(=O)c(C)c32)c1,0.01% and -0.12%
CCCCCC1CCCC(=O)O1 (stereo not shown),-16%
CCCCOc1cc(C(=O)OCCN(CC)CC)ccc1N,5%

# Set 4
# SMILES: Cc1nc(Nc2ncc(C(=O)Nc3c(C)cccc3Cl)s2)cc(N2CCN(CCO)CC2)n1
# Action: inhibitor
target,concentration,inhibition [%]
"PIM1 (Homo sapiens, UniProt P11309)",1 µM,< 50
"IGF1R (Homo sapiens, UniProt P08069)",1 µM,< 50
"NEK7 (Homo sapiens, UniProt Q8TDX7)",10 µM,< 50
"NTRK3 (Homo sapiens, UniProt Q16288)",10 µM,< 50
"HIPK1 (Homo sapiens, UniProt Q86Z02)",10 µM,< 50
"CDK3 (Homo sapiens, UniProt Q00526)",10 µM,< 50
"MARK4 (Homo sapiens, UniProt Q96L34)",10 µM,< 50
"MAPK8 (Homo sapiens, UniProt P45983)",10 µM,< 50
"NEK5 (Homo sapiens, UniProt Q6P3R8)",10 µM,< 50
"BRSK2 (Homo sapiens, UniProt Q8IWQ3)",10 µM,< 50
